Measured values of several laboratories.
Protocols differ between the studies behind these lines. Values joined by “and” are separate records of one study, mostly repeats; a detail may differ.
CYP2C19: Cytochrome P450 2C19 (CYP2C19, Homo sapiens, UniProt P33261)
Chain of UniProt P33261 (whole entry, looked up): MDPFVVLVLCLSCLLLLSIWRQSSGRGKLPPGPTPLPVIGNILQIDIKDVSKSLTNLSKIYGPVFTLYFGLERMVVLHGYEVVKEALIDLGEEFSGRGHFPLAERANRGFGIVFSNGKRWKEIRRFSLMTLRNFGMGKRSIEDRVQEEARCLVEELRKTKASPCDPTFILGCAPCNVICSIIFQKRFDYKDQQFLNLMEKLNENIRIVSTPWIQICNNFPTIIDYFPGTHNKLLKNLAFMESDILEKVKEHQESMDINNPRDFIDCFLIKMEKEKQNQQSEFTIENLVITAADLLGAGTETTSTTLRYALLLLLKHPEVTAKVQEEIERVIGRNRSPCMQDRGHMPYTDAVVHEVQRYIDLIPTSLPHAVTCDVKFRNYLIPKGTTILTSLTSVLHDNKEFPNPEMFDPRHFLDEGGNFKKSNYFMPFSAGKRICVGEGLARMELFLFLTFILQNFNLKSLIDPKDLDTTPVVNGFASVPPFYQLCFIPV
CYP2C9: Cytochrome P450 2C9 (CYP2C9, Homo sapiens, UniProt P11712)
Chain of UniProt P11712 (whole entry, looked up): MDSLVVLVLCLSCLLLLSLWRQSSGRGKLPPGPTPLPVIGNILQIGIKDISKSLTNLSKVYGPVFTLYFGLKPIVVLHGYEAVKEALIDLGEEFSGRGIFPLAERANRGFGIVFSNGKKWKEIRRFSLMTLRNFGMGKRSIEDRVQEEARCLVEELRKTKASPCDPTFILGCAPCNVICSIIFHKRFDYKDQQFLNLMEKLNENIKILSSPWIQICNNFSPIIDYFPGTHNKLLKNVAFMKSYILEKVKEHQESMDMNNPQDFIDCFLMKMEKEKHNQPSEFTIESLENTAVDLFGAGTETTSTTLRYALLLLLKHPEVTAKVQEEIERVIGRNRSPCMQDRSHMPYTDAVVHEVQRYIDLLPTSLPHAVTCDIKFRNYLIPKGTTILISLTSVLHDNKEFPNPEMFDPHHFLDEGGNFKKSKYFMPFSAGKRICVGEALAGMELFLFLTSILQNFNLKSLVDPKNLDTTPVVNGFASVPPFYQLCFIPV
AHR: Aryl hydrocarbon receptor (AHR, Delphinapterus leucas, UniProt Q95LD9)
Chain of UniProt Q95LD9 (whole entry, looked up): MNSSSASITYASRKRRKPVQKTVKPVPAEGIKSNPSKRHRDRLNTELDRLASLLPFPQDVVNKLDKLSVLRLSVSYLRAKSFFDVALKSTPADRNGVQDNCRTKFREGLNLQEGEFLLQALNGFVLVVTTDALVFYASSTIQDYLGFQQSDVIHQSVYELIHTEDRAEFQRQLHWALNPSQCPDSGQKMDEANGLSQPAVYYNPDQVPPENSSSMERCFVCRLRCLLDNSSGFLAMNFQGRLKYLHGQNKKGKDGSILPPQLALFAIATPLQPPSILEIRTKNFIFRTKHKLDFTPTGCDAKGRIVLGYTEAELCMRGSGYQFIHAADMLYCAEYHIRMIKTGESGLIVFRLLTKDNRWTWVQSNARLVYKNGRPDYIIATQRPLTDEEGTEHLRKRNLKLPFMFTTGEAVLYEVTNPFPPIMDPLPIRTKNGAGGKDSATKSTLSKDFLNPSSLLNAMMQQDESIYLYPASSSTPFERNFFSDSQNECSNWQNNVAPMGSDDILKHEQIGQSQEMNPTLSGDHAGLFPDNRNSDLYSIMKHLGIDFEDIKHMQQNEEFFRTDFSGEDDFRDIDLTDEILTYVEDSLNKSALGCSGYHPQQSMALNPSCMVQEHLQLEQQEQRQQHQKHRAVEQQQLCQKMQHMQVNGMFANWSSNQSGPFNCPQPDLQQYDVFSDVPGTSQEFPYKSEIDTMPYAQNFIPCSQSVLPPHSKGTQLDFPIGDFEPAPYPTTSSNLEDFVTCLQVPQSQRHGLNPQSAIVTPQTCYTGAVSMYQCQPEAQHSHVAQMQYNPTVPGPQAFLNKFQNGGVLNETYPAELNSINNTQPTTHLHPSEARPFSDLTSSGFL
Chain of UniProt P08183 (whole entry, looked up): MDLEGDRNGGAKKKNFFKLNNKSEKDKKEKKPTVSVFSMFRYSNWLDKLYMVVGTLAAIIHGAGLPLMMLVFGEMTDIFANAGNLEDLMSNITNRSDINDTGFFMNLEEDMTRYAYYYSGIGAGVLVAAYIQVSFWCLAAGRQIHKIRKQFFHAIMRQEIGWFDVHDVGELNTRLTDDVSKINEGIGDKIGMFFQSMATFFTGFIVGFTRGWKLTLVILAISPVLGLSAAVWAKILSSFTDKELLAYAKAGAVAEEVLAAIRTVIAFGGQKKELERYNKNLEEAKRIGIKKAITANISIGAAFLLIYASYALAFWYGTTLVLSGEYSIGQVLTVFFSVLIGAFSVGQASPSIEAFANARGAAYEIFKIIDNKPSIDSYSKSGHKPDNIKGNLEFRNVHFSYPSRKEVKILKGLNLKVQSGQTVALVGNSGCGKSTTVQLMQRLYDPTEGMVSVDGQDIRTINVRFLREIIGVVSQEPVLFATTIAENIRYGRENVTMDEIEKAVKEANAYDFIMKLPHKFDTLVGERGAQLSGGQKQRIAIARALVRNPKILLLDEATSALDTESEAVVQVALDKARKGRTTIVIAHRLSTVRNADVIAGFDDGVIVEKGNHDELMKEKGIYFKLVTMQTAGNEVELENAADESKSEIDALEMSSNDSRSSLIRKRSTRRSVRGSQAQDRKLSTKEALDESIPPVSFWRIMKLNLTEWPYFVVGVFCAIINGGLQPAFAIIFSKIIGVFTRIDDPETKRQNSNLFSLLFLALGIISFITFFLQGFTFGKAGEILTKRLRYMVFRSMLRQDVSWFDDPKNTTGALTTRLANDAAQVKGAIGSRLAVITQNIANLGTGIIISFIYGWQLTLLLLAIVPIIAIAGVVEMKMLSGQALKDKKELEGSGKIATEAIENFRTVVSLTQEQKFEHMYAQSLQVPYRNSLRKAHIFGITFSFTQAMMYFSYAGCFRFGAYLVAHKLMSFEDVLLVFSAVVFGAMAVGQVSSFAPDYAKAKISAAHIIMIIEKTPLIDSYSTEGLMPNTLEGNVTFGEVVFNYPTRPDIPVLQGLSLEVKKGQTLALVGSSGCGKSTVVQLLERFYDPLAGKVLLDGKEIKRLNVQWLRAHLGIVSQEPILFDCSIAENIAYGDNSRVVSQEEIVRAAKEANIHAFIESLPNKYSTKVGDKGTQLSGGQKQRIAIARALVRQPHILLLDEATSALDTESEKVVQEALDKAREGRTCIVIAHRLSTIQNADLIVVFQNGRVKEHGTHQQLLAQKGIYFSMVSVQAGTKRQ
Chain of UniProt Q9NPD5 (whole entry, looked up): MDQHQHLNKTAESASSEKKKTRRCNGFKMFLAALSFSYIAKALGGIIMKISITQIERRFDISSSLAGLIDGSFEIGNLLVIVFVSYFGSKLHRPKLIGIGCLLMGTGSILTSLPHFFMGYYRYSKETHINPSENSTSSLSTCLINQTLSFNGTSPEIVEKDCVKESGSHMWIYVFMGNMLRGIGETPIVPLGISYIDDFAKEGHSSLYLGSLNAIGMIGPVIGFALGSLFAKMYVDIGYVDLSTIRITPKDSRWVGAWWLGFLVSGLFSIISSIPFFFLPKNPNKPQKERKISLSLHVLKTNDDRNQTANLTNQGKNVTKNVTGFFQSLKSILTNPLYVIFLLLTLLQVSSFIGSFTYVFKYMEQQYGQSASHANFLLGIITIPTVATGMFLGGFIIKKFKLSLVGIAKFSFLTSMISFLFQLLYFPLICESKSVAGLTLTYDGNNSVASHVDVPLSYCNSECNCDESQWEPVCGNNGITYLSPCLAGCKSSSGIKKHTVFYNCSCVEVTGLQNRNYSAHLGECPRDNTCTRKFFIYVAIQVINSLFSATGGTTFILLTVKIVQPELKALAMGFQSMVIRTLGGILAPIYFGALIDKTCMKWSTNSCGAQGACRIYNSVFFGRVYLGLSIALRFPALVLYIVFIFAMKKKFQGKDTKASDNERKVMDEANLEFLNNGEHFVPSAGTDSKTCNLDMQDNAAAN

| SMILES | target | assay | test system | setting | IC50 |
| --- | --- | --- | --- | --- | --- |
| O=S(=O)(O)C(F)(F)C(F)(F)C(F)(F)C(F)(F)F | CYP2C19 | enzyme activity, inhibitor |  | Supersomes, together with: 7-BFC substrate | > 100 µM |
| CC(=O)CC(c1ccccc1)c1c(O)c2ccc(O)cc2oc1=O (stereo not drawn) | CYP2C9 | enzyme activity, inhibitor, luciferase |  |  | 35 µM |
| Clc1ccc(-c2ccc(Cl)c(Cl)c2Cl)c(Cl)c1Cl | AHR | binding, competitor |  | in vitro expressed receptor, together with: [3H]TCDD | 2.24 µM |
| CC(=O)CC(c1ccc(O)cc1)c1c(O)c2ccccc2oc1=O (stereo not drawn) | CYP2C9 | enzyme activity, inhibitor, luciferase |  |  | 9.3 µM |
| N#Cc1ccc(N2N=C3c4ccc(C(=O)N5CCC(O)CC5)nc4CC[C@@H]3[C@@H]2C2CCCC2)cc1Cl | Solute carrier organic anion transporter family member 1B3 (SLCO1B3, Homo sapiens, UniProt Q9NPD5) | transporter uptake, inhibitor |  |  | 21.3 µM |
| Clc1ccc(-c2ccc(Cl)c(Cl)c2Cl)cc1Cl | AHR | binding, competitor |  | in vitro expressed receptor, together with: [3H]TCDD | 3.55 µM |
| C[C@@H]1CC[C@]2(C(=O)O[C@@H]3O[C@H](CO)[C@@H](O)[C@H](O)[C@H]3O)CC[C@]3(C)C(=CC[C@@H]4[C@@]5(C)CC[C@H](O)[C@@](C)(CO)[C@@H]5CC[C@]43C)[C@@H]2[C@]1(C)O | CYP3A4/5 | enzyme activity, inhibitor, probe cocktail incubation | pooled human liver microsomes | 20 min, together with: midazolam 1.535 µM and testosterone 17.34 µM | > 50 µM |
| O=C(O)C(F)(OC(F)(F)C(F)(F)C(F)(F)F)C(F)(F)F (stereo not drawn) | CYP2C19 | enzyme activity, inhibitor |  | Supersomes, together with: 7-BFC substrate | > 100 µM |
| Clc1ccc(-c2cc(Cl)c(Cl)c(Cl)c2)cc1Cl | AHR | binding, competitor |  | in vitro expressed receptor, together with: [3H]TCDD | 0.0081 µM |
| COc1ccc2c3c1O[C@H]1C[C@@H](OC(=O)CCCCCCCCC(=O)O[C@H]4C=C[C@@]56CCN(C)Cc7ccc(OC)c(c75)O[C@H]6C4)C=C[C@@]31CCN(C)C2 | ATP-dependent translocase ABCB1 (ABCB1, Homo sapiens, UniProt P08183) | rhodamine efflux, inhibitor, rhodamine accumulation | MCF7/DX1 |  | ~0.8 µM and 0.8 µM |
| Clc1ccc(-c2cc(Cl)c(Cl)c(Cl)c2)cc1 | AHR | binding, competitor |  | in vitro expressed receptor, together with: [3H]TCDD | 0.0891 µM |
| CC(=O)CC(c1ccccc1)c1c(O)c2cccc(O)c2oc1=O (stereo not drawn) | CYP2C9 | enzyme activity, inhibitor, luciferase |  |  | 16 µM |

A few entries again:
| SMILES | target | assay | test system | setting | IC50 |
| --- | --- | --- | --- | --- | --- |
| C[C@@H]1CC[C@]2(C(=O)O[C@@H]3O[C@H](CO)[C@@H](O)[C@H](O)[C@H]3O)CC[C@]3(C)C(=CC[C@@H]4[C@@]5(C)CC[C@H](O)[C@@](C)(CO)[C@@H]5CC[C@]43C)[C@@H]2[C@]1(C)O | CYP3A4/5 | enzyme activity, inhibitor, probe cocktail incubation | pooled human liver microsomes | 20 min, together with: midazolam 1.535 µM and testosterone 17.34 µM | > 50 µM |
